Measured values gathered from unrelated publications.
Numbered parts are unrelated; each lists some results of a single study.

Set 1 — method: protein-binding microarray; form: double-stranded DNA, one strand shown; sample: in vitro; concentration: 2200 nM top; setting: 60-bp whole probe; with: salmon DNA 0.4 mg/ml; reference: random background probes; direction: higher = stronger binding; quantity: fitted relative affinity
Target: Interferon regulatory factor 7, full length, phosphomimetic (IRF7, Homo sapiens, UniProt Q92985, residues 1-503, S471D/S472D/S475D/S476D/S477D/S483D/S484D/S487D)
Sequence of UniProt Q92985 (whole entry, unmodified, looked up): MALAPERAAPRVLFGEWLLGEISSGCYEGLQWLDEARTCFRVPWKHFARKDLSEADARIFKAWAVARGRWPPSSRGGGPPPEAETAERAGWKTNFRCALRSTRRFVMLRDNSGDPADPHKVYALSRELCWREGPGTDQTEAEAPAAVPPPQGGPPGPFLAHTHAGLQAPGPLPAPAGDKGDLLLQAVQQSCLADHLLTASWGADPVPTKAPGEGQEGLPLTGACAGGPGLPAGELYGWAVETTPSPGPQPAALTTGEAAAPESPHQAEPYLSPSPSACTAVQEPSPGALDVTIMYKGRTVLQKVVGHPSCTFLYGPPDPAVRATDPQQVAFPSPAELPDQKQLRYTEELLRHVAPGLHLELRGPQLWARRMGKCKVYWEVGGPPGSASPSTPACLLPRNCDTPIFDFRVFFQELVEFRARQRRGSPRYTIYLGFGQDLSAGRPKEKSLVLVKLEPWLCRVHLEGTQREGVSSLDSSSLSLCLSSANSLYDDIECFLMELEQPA
GCCTAGCACTTAGGACTGAGGTATCGGTTAGTGCTAGTCTTGATTCGCTTGACGCTGCTG: -0.469 z-score
GCCTAGCACATAGGTATCGACACTGGGTTAGTGCTAGTCTTGATTCGCTTGACGCTGCTG: 0.1 z-score
GCCTAGCACGACGGTATCTACTATCGGGACGTGCTAGTCTTGATTCGCTTGACGCTGCTG: 0.228 z-score

Set 2 — method: RNA Bind-n-Seq; form: RNA; sample: in vitro; concentration: 365 nM; reference: no-protein control; direction: higher = stronger binding; quantity: RBNS enrichment (R)
Target: RNA binding protein fox-1 homolog 2, RRM domain, GST-SBP tag (RBFOX2, Homo sapiens, UniProt O43251-10, residues 100-194)
Setting: natural RNA segment, single round, ends assumed
GGGAGUUCUACAGUCCGACGAUCUUUUGUUGCACUGAAGUUUGAUAAAUAGUGUUAUUGAGAGAGAUGUGUAAUUUUUCUGUAUAGACAGGAGAAGAAAGAACUAUCUUCAUCUGAGAGAGGCUAAAAUGUUUUGGAAUUCUCGGGUGCCAA: 0.419
GGGAGUUCUACAGUCCGACGAUCAACUCUUCAAAAAUGGUCACAGAAUGCCUUUUAAAAUACUGUAUAUAGUCUUCACUGCUUCACCUUGUUAAGUCAGAUAUUUAUGAUAAUGAAGUACGGAACUGGGAACUUGGAAUUCUCGGGUGCCAA: 0.777
GGGAGUUCUACAGUCCGACGAUCAAUUGUUAUAAUUAGAGUUGUGAUACAGAGUAUAUUUCCAUUCAGACAAUAUAUCAUAACUUAAUAAAUAUUGUAUUUUAGAUAUAUUCUCUAAUAAAAUUCAGAAUUCUUGGAAUUCUCGGGUGCCAA: 0.795
GGGAGUUCUACAGUCCGACGAUCGGAAGGCAAAGCAGAUAUGGAGACUCUCCAGAGAAUUUAUGGCAUUUCAUUCCCAGAUCCUAAAAUGUUGAAAGAGUGGGAGAAGUUCCAAGAGGAAGCUAAAAACCGAGUGGAAUUCUCGGGUGCCAA: 0.665

Set 3 — method: protein binding microarray; form: double-stranded DNA, one strand shown; sample: in vitro; concentration: not given; reference: not given; direction: higher = stronger binding; quantity: E-score
Target: Histone acetyltransferase KAT6A, both winged helices, GST fusion (KAT6A, Homo sapiens, UniProt Q92794, residues 1-181)
Setting: 8-mer, flanks averaged, mean of 2 arrays, mostly near background
Target sequence (chain): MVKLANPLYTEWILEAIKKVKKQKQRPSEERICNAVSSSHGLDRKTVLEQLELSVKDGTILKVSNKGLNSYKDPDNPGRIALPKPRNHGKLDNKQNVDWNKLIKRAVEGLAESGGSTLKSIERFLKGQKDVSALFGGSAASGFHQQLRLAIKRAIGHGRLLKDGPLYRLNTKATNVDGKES
ACTAGAGA: -0.151
GTTGCGTA: 0.111
CCAGCATA: -0.193

Other studies, line by line
PhoQ, residues 284 288 289 292 302 303 SNSSNI — fold induction (PhoP, residues 12 14 15 18 19 DLLYY (Escherichia coli, UniProt P23836); Sort-seq, measured: YFP reporter; E. coli; PhoQ-PhoP variant library, with: 10 µM Mg2+; reference: high Mg2+ state, higher = stronger signaling): 1.22

A few entries again (set 2):
GGGAGUUCUACAGUCCGACGAUCUUUUGUUGCACUGAAGUUUGAUAAAUAGUGUUAUUGAGAGAGAUGUGUAAUUUUUCUGUAUAGACAGGAGAAGAAAGAACUAUCUUCAUCUGAGAGAGGCUAAAAUGUUUUGGAAUUCUCGGGUGCCAA: 0.419
